Published values pooled from the literature.
Parts stem from different laboratories: compare values within a part only.

Sample 1 — method: RNA Bind-n-Seq; molecule type: RNA; medium: in vitro; tested at: 365 nM; reference: no-protein control; reading: higher = stronger binding
Target: RNA binding protein fox-1 homolog 2, RRM domain, GST-SBP tag (RBFOX2, Homo sapiens, UniProt O43251-10, residues 100-194)
Notes: natural RNA segment, single round, ends assumed
`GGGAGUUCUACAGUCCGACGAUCUUCCUCAAAACCCCCUGGAGGGGCAAAAGAUGACAGCGACACAGAGAAAGUUUGGGGCAUGAUAUAUGUCCAUUUCUCUACGAAAUAUUUGUUAUGGAGCUGUGCUAAUUUGGAAUUCUCGGGUGCCAA` — result for “RBNS enrichment (R)”: 0.461.
Under “RBNS enrichment (R)”, `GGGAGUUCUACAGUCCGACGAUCGUACAGCUCUGUGAAAGUUCUGAUUCUCUUCCUUCCCUGUUUGUCAAUGUUUUAUUCUGAAGUAAACGUUAGCUCUACAUAUAAAUCCUGGAACAGAAAUUGUUUAUAGAUGGAAUUCUCGGGUGCCAA` is recorded as 0.506.
`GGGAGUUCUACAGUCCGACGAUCAUGCAGAAUACAGACCUUGAGGUUGGCUACUGUUCAAGACAGCUUCAGUCUCUCUACCACAUUCCAUGUAAACCUAUGGUGAAGUAACACCAGAAAAAAGAGCCUGAGAGUGGAAUUCUCGGGUGCCAA`: “RBNS enrichment (R)” 0.476.
`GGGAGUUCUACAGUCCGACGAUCUCCUUGAGAUUACCCAAGUACCGUCAUGACCAAGAAGCCUUUCCGUCAUUGAGUACCUGAUUUUUAAAAGCAAGCACCCAAAUAAUUCUCUCUAGGGAAUCUCAUUUGUUUGGAAUUCUCGGGUGCCAA`: “RBNS enrichment (R)” 0.383.
Under “RBNS enrichment (R)”, `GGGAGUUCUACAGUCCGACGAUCCCCGUCUCCCUUUCCACAUCAAGGCACAUCAGACUUCUCAGAGACCCACUUUAUUCAGUUCUGUACAUAUGGGGACAUCGGUCCAAGCCCAACCCACCUUAGCAUGUAUCUGGAAUUCUCGGGUGCCAA` is recorded as 3.82.

Sample 2 — method: aptamer microarray, sandwich; molecule type: DNA with 2'F-ANA; medium: in vitro; tested at: 200 nM; with: Cy3 exosite-II aptamer, 400 nM; reading: higher = stronger binding
Target: Prothrombin, mature alpha-thrombin (F2, Homo sapiens, UniProt P00734)
Notes: whole 15-mer aptamer, many near background
`GGTTGGTGTGGTTGG (2'F-ANA at 1 5 6 9 10 14)` — result for “mean fluorescence intensity”: 60.4 a.u.
`GGTTGGTGTGGTTGG (2'F-ANA at 4 5 6 7 9 10 11 15)` — result for “mean fluorescence intensity”: 47.7 a.u.
`GGTTGGTGTGGTTGG (2'F-ANA at 1 4 7 8 9 10 11 13 14 15)`: “mean fluorescence intensity” 48.6 a.u.
`GGTTGGTGTGGTTGG (2'F-ANA at 5 6 7 10 12 15)` — result for “mean fluorescence intensity”: 50.5 a.u.

Sample 3 — method: protein binding microarray; molecule type: double-stranded DNA, one strand shown; medium: in vitro; tested at: not given; reference: not given; reading: higher = stronger binding
Target: Histone acetyltransferase KAT6A, both winged helices, GST fusion (KAT6A, Homo sapiens, UniProt Q92794, residues 1-181)
Notes: 8-mer, flanks averaged, mean of 2 arrays, mostly near background
Residues (chain): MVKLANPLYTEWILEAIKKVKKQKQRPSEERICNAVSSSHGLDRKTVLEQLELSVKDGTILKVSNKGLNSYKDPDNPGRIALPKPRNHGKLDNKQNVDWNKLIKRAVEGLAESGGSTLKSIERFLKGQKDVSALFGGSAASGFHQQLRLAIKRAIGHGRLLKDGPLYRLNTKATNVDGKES
`GTTAGACA` has an E-score of -0.00878.
`ATCGGGTG` gave an E-score of 0.123.
`CTATGGGA` gave an E-score of -0.066.
For `ATATAGCA`, the E-score was -0.11.
For `CGCGAACC`, the E-score was 0.235.
`AAACCCCC` has an E-score of -0.0649.

Single results of other studies
The fold induction of `PhoQ, residues 284 288 289 292 302 303 TAVSDG` is reported as 1.02 (PhoP, residues 12 14 15 18 19 LHSVW (Escherichia coli, UniProt P23836); Sort-seq, measured: YFP reporter; E. coli; PhoQ-PhoP variant library, with: 10 µM Mg2+; reference: high Mg2+ state, higher = stronger signaling).

For quick reference, copied from above (sample 1):
`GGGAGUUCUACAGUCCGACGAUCAUGCAGAAUACAGACCUUGAGGUUGGCUACUGUUCAAGACAGCUUCAGUCUCUCUACCACAUUCCAUGUAAACCUAUGGUGAAGUAACACCAGAAAAAAGAGCCUGAGAGUGGAAUUCUCGGGUGCCAA`: “RBNS enrichment (R)” 0.476.
`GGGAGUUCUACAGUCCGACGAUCUUCCUCAAAACCCCCUGGAGGGGCAAAAGAUGACAGCGACACAGAGAAAGUUUGGGGCAUGAUAUAUGUCCAUUUCUCUACGAAAUAUUUGUUAUGGAGCUGUGCUAAUUUGGAAUUCUCGGGUGCCAA` — result for “RBNS enrichment (R)”: 0.461.
